Measurements from different studies.
Lines come from different studies, so protocols differ. Several values in a cell are separate wells, animals, samples, runs or records. ± gives the spread as reported.
Nuclear receptor subfamily 2 group C member 2 ligand-binding domain: Nuclear receptor subfamily 2 group C member 2, ligand-binding domain (Homo sapiens, UniProt P49116)
UniProt P49116, sequence (whole entry, looked up): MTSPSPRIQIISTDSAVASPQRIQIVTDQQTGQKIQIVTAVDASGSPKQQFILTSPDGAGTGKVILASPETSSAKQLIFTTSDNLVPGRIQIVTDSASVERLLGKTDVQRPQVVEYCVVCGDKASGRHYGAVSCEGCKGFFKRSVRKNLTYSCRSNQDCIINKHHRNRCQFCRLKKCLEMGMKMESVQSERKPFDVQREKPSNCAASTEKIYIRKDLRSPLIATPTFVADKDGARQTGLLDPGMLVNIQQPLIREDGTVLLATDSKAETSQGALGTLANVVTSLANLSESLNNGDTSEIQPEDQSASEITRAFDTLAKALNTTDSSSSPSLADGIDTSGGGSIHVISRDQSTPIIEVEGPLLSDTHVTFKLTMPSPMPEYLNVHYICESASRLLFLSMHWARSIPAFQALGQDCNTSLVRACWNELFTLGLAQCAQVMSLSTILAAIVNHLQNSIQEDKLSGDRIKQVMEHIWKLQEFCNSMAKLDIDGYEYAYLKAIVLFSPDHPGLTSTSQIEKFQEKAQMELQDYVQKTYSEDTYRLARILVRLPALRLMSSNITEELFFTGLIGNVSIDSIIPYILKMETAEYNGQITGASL

| Structure (SMILES) | target or system | test | setting | how to read | endpoint | value |
| --- | --- | --- | --- | --- | --- | --- |
| Clc1ccc(C(c2c[nH]c3ccccc23)c2c[nH]c3ccccc23)cc1 | COS-7 | WST-8 | 10 µM, 24 h, 0.1% DMSO, unit not given | relative to: vehicle control | metabolic activity | 0.16 ± 0.01 |
| COc1cc2c(c(O)c1OC)C(=O)c1c(cc(C)c(O)c1OC)C2=O | HepaRG co-cultured with HK-2 | MTT | 66.67 µM, 48 h | relative to: untreated control | cell viability | 69.8 ± 8.02% |
| COC(=O)c1cn(C)c2ccc(-c3cccnc3)cc12 | COS-7 |  | 30 µM, 24 h, 0.1% DMSO, unit not given | relative to: vehicle control | confluence | 0.77 ± 0.11 |
| CC(=O)Nc1cccc(-n2c(=O)n(C3CC3)c(=O)c3c(Nc4ccc(I)cc4F)n(C)c(=O)c(C)c32)c1 | SW1417 |  | 0.1 µM, 72 h, unit not given | relative to: DMSO | viability | 0.768 and 0.641 and 0.37 and 0.993 and 0.452 and 0.775 |
| COc1cc2c(c(OC)c1OC)C(=O)c1c(cc(C)c(O)c1OC)C2=O | HepaRG co-cultured with HK-2 | MTT | 16.67 µM, 48 h | relative to: untreated control | cell viability | 85.5 ± 6.91% |
| COC1=C(OC)C(=O)C(CCCCCCCCCCO)=C(C)C1=O | Nuclear receptor subfamily 2 group C member 2 ligand-binding domain | SPR imaging |  |  | Kd | 471 nM |
| Cc1cc(C(=O)NC(C)(C)COc2cccc3c2C(N)=NS(=O)(=O)N3)cc(C)n1 | human peripheral blood lymphocytes | CBPI, preliminary test | 20 µg/mL, 4 h, together with: rat liver S9 | relative to: vehicle control | cytotoxicity | 10% |
| Cc1cc(O)c2c(c1)C(=O)c1cccc(O)c1C2=O | HepaRG co-cultured with HK-2 | MTT | 66.67 µM, 24 h | relative to: untreated control | cell viability | 91.7 ± 8.43% |
| COc1cc2ncnc(Nc3ccc(Oc4ccccc4)c(C)c3C)c2cc1OC.Cl | COLO 205 (BRAF V600E) | resazurin | 0.1 µM, 72 h, unit not given, together with: trametinib | relative to: DMSO | viability | 0.859 |
| CC[C@@]1(O)C(=O)OCc2c1cc1n(c2=O)Cc2cc3c(CN(C)C)c(O)ccc3nc2-1 | Nuclear receptor subfamily 2 group C member 2 ligand-binding domain | SPR imaging |  |  | Kd | 16.8 nM |
| O=C(O)c1cc(O)c2c(c1)C(=O)c1cccc(O)c1C2=O | HepaRG co-cultured with HK-2 | MTT | 66.67 µM, 24 h | relative to: untreated control | cell viability | 75.6 ± 4.2% |
| COC[C@@H](CC(C)C)NC(=O)c1ccc(C)c(C)c1 | primary human lymphocytes |  | 225 µg/mL, 4 (unit not given), with S9 |  | cells with structural aberrations | 0.5% |
| COc1cc2ncnc(Nc3ccc(Oc4ccccc4)cc3C)c2cc1OC.O=C(O)C(F)(F)F | COLO 205 (BRAF V600E) | resazurin | 1 µM, 72 h, together with: trametinib 0 nM |  | viability | 0.712 fraction of control |
| CCN(CC)Cc1cc(Nc2ccnc3cc(Cl)ccc23)ccc1O | COS-7 | WST-8 | 30 µM, 24 h, 0.1% DMSO, unit not given | relative to: vehicle control | metabolic activity | 0.6 ± 0.38 |
